Experimental data gathered from unrelated publications.
Parts stem from different laboratories: compare values within a part only. Substitutions count along the parent as printed.

Series 1 — target: CCNE2, cyclin fold, Cln2 fusion (human); technique: yeast growth competition, sequencing; matrix: yeast; notes: strong parent motif; reference: not given; direction: higher = stronger binding; quantity: normalised enrichment score
Parent: RBL1 docking peptide (human); GSAKRRLFGEDPP
Variant = GSAKRRLFGTDPP [E10T]; value = 3.5
Variant = GYAKRRLFGEDPP [S2Y]; value = 3.07
Variant = GSAKRRQFGEDPP [L7Q]; value = 0.731
Variant = GSAKRSLFGEDPP [R6S]; value = 1.39
Variant = GSAKRRYFGEDPP [L7Y]; value = 1.23
Variant = GSAHRRLFGEDPP [K4H]; value = 0.424
Variant = GSAKRRLFIEDPP [G9I]; value = 5.4
Variant = GDAKRRLFGEDPP [S2D]; value = 3.27
Variant = GSAKRRLFGWDPP [E10W]; value = 2.49
Variant = GSAKRVLFGEDPP [R6V]; value = 3.07
Variant = GSAKRRKFGEDPP [L7K]; value = 0.765
Variant = GPAKRRLFGEDPP [S2P]; value = 3.45
Variant = GSAKRRMFGEDPP [L7M]; value = 0.352
Variant = NSAKRRLFGEDPP [G1N]; value = 5.32
Variant = GSAKRRLFGVDPP [E10V]; value = 2.83

Series 2 — technique: protein-binding microarray; form: double-stranded DNA, one strand shown; matrix: in vitro; tested at: 940 nM top; notes: 60-bp whole probe; together with: salmon DNA 0.4 mg/ml; reference: random background probes; direction: higher = stronger binding; quantity: fitted relative affinity; all sequences stand within: GCCTAGCAC … GTCTTGATTCGCTTGACGCTGCTG
Target: Interferon regulatory factor 5, full length, phosphomimetic (IRF5, Homo sapiens, UniProt Q13568-2, residues 1-514, S451D/S453D/S456D/S462D)
Oligonucleotide = CCTCCTTACTTTATGTAGGAGTGCTAG; value = -0.117 z-score
Oligonucleotide = CAGAGTCTAGCCATTGTGGGTGTGCTA; value = -0.505 z-score
Oligonucleotide = GGTCTTCTGGGCTGTTTGGTTGTGCTA; value = 0.16 z-score
Oligonucleotide = TCTAATTTACTTTGGTTGGCGTGCTAG; value = 0.2 z-score
Oligonucleotide = TTAGGTTTCGGGAGTGGGTTAGTGCTA; value = 7.99 z-score
Oligonucleotide = TTAGATTTCAGTATCGATAAGTGCTAG; value = 5.14 z-score
Oligonucleotide = TGGAGAGCATATTCTGTGACGTGCTAG; value = -0.632 z-score
Oligonucleotide = TCACATTCCAATTCTTTTACTGTGCTA; value = 1.54 z-score
Oligonucleotide = TTAGGTTTCAGGTTTCGGTTAGTGCTA; value = 8.28 z-score
Oligonucleotide = TCAGTTATCCATCTCAAACTGTGCTAG; value = 0.52 z-score
Oligonucleotide = GACGGGCTCGGACTGGGGACGTGCTAG; value = -0.701 z-score
Oligonucleotide = TTAGATTTCAGATTCGATTAGTGCTAG; value = 0.506 z-score

Series 3 — technique: protein-binding microarray; form: hairpin DNA; matrix: in vitro; tested at: not given; reference: not given; direction: higher = stronger binding; quantity: median fluorescence
Target: Hepatocyte nuclear factor 3-beta, forkhead domain (FOXA2, Homo sapiens, UniProt Q9Y261, residues 142-269)
Notes: whole hairpin DNA, median over replicate spots
Construct (chain): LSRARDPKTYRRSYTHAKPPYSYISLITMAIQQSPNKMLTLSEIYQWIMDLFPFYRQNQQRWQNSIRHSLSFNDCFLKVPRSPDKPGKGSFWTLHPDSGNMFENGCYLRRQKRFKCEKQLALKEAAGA
Oligonucleotide = GAGGCCATGTACCCAACGCCTCCTGGCGTTGGGTACATGGCCTCACACTC; value = 3260 a.u.
Oligonucleotide = GAGGCCATGTCGCCAACGCCTCCTGGCGTTGGCGACATGGCCTCACACTC (5mC at 11 33); value = 3230 a.u.
Oligonucleotide = GAGGCCATGCGAACAACGCCTCCTGGCGTTGTTCGCATGGCCTCACACTC (5mC at 10 34); value = 3270 a.u.
Oligonucleotide = GAGGCCATGTAAGCAACGCCTCCTGGCGTTGCTTACATGGCCTCACACTC; value = 3170 a.u.
Oligonucleotide = GAGGCCATGCAAACAACGCCTCCTGGCGTTGTTTGCATGGCCTCACACTC (5mC at 17); value = 3780 a.u.
Oligonucleotide = GAGGCCCTGCAAACAACGCCTCCTGGCGTTGTTTGCAGGGCCTCACACTC (5mC at 7); value = 3430 a.u.
Oligonucleotide = GAGGCCATGCAAAAAACGCCTCCTGGCGTTTTTTGCATGGCCTCACACTC; value = 2940 a.u.
Oligonucleotide = GAGGCCATGCCGACAACGCCTCCTGGCGTTGTCGGCATGGCCTCACACTC; value = 3380 a.u.
Oligonucleotide = GAGGCCCGGTAAACAACGCCTCCTGGCGTTGTTTACCGGGCCTCACACTC; value = 4190 a.u.
Oligonucleotide = GAGGCCATGTAACCAGCGCCTCCTGGCGCTGGTTACATGGCCTCACACTC (5mC at 29); value = 3410 a.u.
Oligonucleotide = GAGGCCATGTAACCGACGCCTCCTGGCGTCGGTTACATGGCCTCACACTC (5mC at 14 30); value = 3240 a.u.
Oligonucleotide = GAGGCCCTGTAAACAACGCCTCCTGGCGTTGTTTACAGGGCCTCACACTC (5mC at 7); value = 3730 a.u.
Oligonucleotide = GAGGCCATGTAAACCGCGCCTCCTGGCGCGGTTTACATGGCCTCACACTC (5mC at 29); value = 3380 a.u.

Series 4 — technique: protein binding microarray; form: double-stranded DNA, one strand shown; matrix: in vitro; tested at: not given; reference: not given; direction: higher = stronger binding; quantity: E-score
Target: Histone acetyltransferase KAT6A, winged helix 2, GST fusion (KAT6A, Homo sapiens, UniProt Q92794, residues 85-181)
Notes: 8-mer, flanks averaged, mean of 2 arrays, mostly near background
Construct (chain): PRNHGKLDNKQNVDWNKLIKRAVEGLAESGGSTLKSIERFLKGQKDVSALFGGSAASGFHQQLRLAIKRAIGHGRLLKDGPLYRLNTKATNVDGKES
Oligonucleotide = ATGCCCTG; value = 0.0991
Oligonucleotide = AGTCAATA; value = -0.07
Oligonucleotide = CGAGTGAA; value = 0.16
Oligonucleotide = CCAGCTTA; value = 0.0382
Oligonucleotide = AGGTGCGG; value = 0.123
Oligonucleotide = GCGTAAAA; value = -0.0438
Oligonucleotide = GATCTCCA; value = -0.00682
Oligonucleotide = AAGGTCAA; value = -0.103
Oligonucleotide = GGTACTAA; value = -0.0557
Oligonucleotide = CTTCCAGA; value = -0.0436
Oligonucleotide = AGACAGAG; value = 0.0573
Oligonucleotide = GCTGCGTA; value = 0.00274
Oligonucleotide = AATCTTGG; value = -0.0987
Oligonucleotide = ATTTTCCG; value = 0.187

Series 5 — technique: competition protein-binding microarray; form: double-stranded DNA, one strand shown; matrix: in vitro; tested at: 2 µM; together with: Pho4 competitor, 0.05 µM; direction: higher = stronger binding; quantity: fluorescence intensity; all sequences stand within: … GTCTTGATTCGCTTGACGCTGCTG
Target: Centromere-binding protein 1, full length, His-tagged (CBF1, Saccharomyces cerevisiae, UniProt P17106, residues 1-351)
Chain of UniProt P17106 (whole entry, looked up): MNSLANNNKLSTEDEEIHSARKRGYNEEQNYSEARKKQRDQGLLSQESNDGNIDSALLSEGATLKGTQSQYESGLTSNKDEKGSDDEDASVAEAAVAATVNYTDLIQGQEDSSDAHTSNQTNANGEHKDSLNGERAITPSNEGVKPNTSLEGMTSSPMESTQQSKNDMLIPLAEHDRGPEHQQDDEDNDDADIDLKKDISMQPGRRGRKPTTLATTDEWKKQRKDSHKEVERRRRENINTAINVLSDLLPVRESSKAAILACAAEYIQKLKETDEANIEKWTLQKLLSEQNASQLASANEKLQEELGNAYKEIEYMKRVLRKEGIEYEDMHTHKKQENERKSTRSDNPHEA
Notes: whole 60-bp probe, lowest competitor level
Oligonucleotide = AAAATGCCAAAGTTCCACGTGCATCCAAACCAGTAG; value = 1190 a.u.
Oligonucleotide = GTCTTGTCTCATTTTCACGTGATGTTCCCCACTTCA; value = 2170 a.u.
Oligonucleotide = ACCCCATTATCTGGAGGCGTGCCGACAGCTCCGTTG; value = 75.3 a.u.
Oligonucleotide = TGCCTTTCTGAAACGAATGTGACGGATACAGATACC; value = 77.2 a.u.
Oligonucleotide = CTAACGAAGGTTTGATCAGTGGGTGACAAGCCAAGT; value = 64.6 a.u.
Oligonucleotide = TGAAAAACTGCTTGATTCGTGCTTTTAACTCAGAGG; value = 60.9 a.u.
Oligonucleotide = CCTCAGGAGCGCCGCCATGTGGGATGGAATAGCACA; value = 63.2 a.u.
Oligonucleotide = TTTTACGTTTGAGGCCTCGTGGCCGAAATGGTACGC; value = 118 a.u.
Oligonucleotide = CATACCCAACCTTGCGTGGTGGGTGAAGATATTTGT; value = 62.3 a.u.
Oligonucleotide = CTTTCCCGATCTTTTCACGTGGTCTTAGCACATTTG; value = 1360 a.u.
Oligonucleotide = CGGGGTTAAGTTTGACGCGTGGGTGGCTTGCAGCAG; value = 79.3 a.u.
Oligonucleotide = GCGCAAAATGGCGTCACCGTGAAAAAGGAGGAGGAT; value = 99.3 a.u.
Oligonucleotide = CGTCCTAGCGATTGAAGTGTGGGTGCCATGAGGAAG; value = 74.8 a.u.
Oligonucleotide = CGGGGTTAAGTTTGAGTTGTGGGTGGCTTGCAGCAG; value = 69.2 a.u.
Oligonucleotide = GGTTCGTAGCCAGACGCCGTGACGGTTGGGCCTCTA; value = 50.9 a.u.
Oligonucleotide = AGATCCTCTTGGGATCTTGTGCGACGGGGAGATTGA; value = 53.8 a.u.
Oligonucleotide = TCGTCAGGACAAATGAACGTGGTCGATCCTCCGCCG; value = 71.6 a.u.
Oligonucleotide = TGCCAAGCGTGGAGGAACGTGTGAATTCCCTAACTA; value = 70 a.u.

Series 6 — technique: universal PBM; form: double-stranded DNA, one strand shown; matrix: in vitro; tested at: 600 nM; direction: higher = stronger binding; quantity: E-score
Target: Sal-like protein 4, full length isoform A (SALL4, Homo sapiens, UniProt Q9UJQ4, residues 1-1053)
Chain of UniProt Q9UJQ4 (whole entry, looked up): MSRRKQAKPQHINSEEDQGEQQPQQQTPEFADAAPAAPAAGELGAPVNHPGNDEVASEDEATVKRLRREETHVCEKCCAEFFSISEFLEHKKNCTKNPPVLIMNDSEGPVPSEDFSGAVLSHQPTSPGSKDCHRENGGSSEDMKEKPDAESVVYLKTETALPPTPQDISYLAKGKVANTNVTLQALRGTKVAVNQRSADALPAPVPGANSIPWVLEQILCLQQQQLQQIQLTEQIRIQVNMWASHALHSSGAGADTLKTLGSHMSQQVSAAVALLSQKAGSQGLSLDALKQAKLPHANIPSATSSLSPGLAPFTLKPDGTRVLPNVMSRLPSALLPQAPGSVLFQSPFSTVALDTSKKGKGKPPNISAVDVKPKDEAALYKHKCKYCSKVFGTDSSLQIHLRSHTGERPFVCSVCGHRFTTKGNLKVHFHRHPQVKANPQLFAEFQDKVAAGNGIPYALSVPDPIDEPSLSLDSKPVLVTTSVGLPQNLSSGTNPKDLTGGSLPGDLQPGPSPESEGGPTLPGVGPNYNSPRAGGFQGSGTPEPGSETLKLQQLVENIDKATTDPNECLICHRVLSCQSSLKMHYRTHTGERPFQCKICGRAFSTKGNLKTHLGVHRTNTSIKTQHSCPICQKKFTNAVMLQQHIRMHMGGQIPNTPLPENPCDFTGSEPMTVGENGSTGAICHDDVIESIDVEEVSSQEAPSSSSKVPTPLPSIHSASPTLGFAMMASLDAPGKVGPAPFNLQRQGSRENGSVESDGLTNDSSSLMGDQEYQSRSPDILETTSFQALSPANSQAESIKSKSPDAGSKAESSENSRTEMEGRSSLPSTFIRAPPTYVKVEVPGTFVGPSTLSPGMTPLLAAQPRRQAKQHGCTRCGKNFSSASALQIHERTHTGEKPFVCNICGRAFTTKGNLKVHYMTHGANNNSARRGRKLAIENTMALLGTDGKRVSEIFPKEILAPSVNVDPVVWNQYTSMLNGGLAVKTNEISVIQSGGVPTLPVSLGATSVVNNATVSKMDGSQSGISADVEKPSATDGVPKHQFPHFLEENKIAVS
Notes: 8-mer, flanks averaged, mean of replicates
Oligonucleotide = GACTGGAC; value = -0.266
Oligonucleotide = AGCGCCAG; value = -0.235
Oligonucleotide = CTGGACCA; value = -0.216
Oligonucleotide = CTCTAACC; value = -0.271
Oligonucleotide = AGTCAGCA; value = 0.061
Oligonucleotide = GCTCATGA; value = -0.0741
Oligonucleotide = CACTAGGC; value = -0.172
Oligonucleotide = TATCGGCA; value = 0.0335
Oligonucleotide = ACATTTCC; value = 0.0726
Oligonucleotide = ACTGATAC; value = -0.0549
Oligonucleotide = GCTGTTCA; value = 0.0454
Oligonucleotide = CGGATTTC; value = -0.106
Oligonucleotide = ACTCAAGT; value = -0.0227
Oligonucleotide = ACTGCTTG; value = -0.123
Oligonucleotide = ACACCTCT; value = -0.215
Oligonucleotide = CAGCTACC; value = -0.268
Oligonucleotide = CCGGCTGC; value = -0.394
Oligonucleotide = CTTGGTTA; value = 0.0654
Oligonucleotide = AACACTCG; value = 0.00828

A few entries again (series 6):
Oligonucleotide = GCTCATGA; value = -0.0741
Oligonucleotide = CACTAGGC; value = -0.172
Oligonucleotide = TATCGGCA; value = 0.0335
Oligonucleotide = ACATTTCC; value = 0.0726
Oligonucleotide = ACTGATAC; value = -0.0549
Oligonucleotide = GCTGTTCA; value = 0.0454
Oligonucleotide = CGGATTTC; value = -0.106
Oligonucleotide = ACTCAAGT; value = -0.0227
Oligonucleotide = ACTGCTTG; value = -0.123
Oligonucleotide = ACACCTCT; value = -0.215
Oligonucleotide = CAGCTACC; value = -0.268
Oligonucleotide = CCGGCTGC; value = -0.394
Oligonucleotide = CTTGGTTA; value = 0.0654
Oligonucleotide = AACACTCG; value = 0.00828
